Assay results from different studies.
Each line is one published result; not all experiments were run side by side. Several values in a cell are separate wells, animals, samples, runs or records.
DRD3: D(3) dopamine receptor (DRD3, Homo sapiens, UniProt P35462)
Chain of UniProt P35462 (whole entry, looked up): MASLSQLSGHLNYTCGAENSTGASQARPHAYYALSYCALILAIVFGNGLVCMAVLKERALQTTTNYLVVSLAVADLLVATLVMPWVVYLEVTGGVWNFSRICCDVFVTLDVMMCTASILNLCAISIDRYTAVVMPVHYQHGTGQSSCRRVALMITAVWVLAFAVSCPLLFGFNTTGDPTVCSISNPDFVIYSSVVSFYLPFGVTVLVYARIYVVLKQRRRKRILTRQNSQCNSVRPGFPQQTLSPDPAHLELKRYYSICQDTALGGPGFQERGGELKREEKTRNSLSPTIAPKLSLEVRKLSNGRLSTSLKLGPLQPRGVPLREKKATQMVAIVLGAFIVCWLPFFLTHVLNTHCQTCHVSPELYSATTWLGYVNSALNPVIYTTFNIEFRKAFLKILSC
HDAC6: Protein deacetylase HDAC6 (HDAC6, Homo sapiens, UniProt Q9UBN7)
Chain of UniProt Q9UBN7 (whole entry, looked up): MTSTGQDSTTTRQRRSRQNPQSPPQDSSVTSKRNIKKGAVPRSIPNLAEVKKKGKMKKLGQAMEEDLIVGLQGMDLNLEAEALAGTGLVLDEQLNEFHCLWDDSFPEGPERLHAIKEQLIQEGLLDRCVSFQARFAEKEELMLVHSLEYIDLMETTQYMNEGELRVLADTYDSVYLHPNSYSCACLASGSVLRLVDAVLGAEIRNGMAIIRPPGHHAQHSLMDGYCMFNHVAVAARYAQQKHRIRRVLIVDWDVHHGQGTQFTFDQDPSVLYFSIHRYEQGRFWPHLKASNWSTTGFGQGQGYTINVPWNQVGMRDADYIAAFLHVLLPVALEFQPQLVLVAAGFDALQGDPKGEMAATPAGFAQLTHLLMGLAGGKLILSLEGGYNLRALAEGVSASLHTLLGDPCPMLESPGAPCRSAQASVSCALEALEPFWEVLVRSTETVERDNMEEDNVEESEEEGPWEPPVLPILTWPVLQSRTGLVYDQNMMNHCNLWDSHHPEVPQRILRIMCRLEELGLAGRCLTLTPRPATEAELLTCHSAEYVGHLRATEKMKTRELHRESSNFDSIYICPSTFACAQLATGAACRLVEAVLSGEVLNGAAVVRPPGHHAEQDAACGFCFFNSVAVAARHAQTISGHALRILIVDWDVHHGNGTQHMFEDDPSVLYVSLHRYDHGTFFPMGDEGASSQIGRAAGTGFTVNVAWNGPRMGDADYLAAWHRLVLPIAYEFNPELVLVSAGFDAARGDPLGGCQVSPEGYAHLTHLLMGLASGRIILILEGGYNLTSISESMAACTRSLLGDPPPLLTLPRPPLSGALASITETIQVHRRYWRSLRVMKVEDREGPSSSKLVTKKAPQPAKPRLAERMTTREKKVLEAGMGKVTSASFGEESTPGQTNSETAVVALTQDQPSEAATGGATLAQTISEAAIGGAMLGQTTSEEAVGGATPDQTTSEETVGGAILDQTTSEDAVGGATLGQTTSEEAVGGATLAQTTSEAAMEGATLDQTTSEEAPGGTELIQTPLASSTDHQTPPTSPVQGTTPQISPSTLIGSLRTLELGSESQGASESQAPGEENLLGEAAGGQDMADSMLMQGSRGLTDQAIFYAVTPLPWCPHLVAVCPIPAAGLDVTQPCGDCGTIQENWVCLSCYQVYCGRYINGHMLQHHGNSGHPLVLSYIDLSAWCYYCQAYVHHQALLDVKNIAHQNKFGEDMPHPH
PARP2: Poly [ADP-ribose] polymerase 2 (PARP2, Homo sapiens, UniProt Q9UGN5)
CES2: Cocaine esterase (CES2, Homo sapiens, UniProt O00748)
Chain of UniProt O00748 (whole entry, looked up): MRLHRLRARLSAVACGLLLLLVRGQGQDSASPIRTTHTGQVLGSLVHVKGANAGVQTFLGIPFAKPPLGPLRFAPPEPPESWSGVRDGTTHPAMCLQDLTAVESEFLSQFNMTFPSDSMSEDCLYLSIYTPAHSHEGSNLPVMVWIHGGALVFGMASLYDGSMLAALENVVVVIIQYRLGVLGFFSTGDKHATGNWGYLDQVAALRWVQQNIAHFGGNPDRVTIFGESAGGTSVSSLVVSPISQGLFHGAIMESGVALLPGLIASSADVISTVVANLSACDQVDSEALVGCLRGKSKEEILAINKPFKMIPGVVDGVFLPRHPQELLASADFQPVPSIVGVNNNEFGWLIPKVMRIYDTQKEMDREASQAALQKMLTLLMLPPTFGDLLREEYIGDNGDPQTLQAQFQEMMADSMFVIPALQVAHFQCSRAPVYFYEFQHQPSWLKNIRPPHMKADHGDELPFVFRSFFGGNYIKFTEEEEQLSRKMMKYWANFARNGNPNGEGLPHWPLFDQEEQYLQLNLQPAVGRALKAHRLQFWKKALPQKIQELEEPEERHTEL
HDAC8: Histone deacetylase 8 (HDAC8, Homo sapiens, UniProt Q9BY41)
Chain of UniProt Q9BY41 (whole entry, looked up): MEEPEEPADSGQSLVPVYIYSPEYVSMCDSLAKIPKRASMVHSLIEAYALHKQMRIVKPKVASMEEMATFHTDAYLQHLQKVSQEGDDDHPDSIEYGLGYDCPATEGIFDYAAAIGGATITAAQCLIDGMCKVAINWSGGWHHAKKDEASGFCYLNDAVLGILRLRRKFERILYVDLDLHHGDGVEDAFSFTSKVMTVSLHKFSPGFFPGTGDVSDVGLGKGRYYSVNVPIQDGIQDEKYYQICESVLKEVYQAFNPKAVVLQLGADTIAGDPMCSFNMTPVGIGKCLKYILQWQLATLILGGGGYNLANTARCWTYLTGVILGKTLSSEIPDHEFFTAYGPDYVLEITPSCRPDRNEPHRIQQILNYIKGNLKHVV
PIK3CB: Phosphatidylinositol 4,5-bisphosphate 3-kinase catalytic subunit beta isoform (PIK3CB, Homo sapiens, UniProt P42338)
Chain of UniProt P42338 (whole entry, looked up): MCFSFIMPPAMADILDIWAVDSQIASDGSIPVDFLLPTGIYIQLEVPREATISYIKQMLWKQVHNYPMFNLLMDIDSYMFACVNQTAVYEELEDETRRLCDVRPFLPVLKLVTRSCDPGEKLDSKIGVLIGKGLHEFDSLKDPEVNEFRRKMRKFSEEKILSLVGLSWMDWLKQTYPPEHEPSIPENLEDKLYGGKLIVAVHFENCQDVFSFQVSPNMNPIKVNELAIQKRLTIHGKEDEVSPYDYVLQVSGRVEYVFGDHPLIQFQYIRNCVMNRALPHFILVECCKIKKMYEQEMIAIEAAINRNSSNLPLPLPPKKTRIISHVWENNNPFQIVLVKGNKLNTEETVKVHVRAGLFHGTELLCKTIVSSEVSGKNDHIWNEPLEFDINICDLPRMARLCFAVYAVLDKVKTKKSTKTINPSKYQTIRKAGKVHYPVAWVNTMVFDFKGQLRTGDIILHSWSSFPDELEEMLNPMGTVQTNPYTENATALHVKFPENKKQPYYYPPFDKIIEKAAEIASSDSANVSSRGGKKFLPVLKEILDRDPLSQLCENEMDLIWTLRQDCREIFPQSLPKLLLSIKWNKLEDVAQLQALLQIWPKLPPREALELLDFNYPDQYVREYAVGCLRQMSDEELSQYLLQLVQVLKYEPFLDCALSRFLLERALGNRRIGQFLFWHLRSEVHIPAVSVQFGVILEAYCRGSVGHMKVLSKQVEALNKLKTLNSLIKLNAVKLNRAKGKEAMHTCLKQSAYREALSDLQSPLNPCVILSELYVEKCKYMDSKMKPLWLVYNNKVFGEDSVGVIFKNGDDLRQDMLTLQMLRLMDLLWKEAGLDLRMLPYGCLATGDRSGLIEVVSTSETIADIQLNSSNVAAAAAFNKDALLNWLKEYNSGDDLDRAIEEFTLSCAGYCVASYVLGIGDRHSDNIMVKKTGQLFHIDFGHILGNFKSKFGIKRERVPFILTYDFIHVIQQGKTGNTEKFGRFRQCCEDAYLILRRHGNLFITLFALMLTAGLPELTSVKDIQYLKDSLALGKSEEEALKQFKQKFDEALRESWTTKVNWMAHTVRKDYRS
PARP10: Protein mono-ADP-ribosyltransferase PARP10 (PARP10, Homo sapiens, UniProt Q53GL7)
Chain of UniProt Q53GL7 (whole entry, looked up): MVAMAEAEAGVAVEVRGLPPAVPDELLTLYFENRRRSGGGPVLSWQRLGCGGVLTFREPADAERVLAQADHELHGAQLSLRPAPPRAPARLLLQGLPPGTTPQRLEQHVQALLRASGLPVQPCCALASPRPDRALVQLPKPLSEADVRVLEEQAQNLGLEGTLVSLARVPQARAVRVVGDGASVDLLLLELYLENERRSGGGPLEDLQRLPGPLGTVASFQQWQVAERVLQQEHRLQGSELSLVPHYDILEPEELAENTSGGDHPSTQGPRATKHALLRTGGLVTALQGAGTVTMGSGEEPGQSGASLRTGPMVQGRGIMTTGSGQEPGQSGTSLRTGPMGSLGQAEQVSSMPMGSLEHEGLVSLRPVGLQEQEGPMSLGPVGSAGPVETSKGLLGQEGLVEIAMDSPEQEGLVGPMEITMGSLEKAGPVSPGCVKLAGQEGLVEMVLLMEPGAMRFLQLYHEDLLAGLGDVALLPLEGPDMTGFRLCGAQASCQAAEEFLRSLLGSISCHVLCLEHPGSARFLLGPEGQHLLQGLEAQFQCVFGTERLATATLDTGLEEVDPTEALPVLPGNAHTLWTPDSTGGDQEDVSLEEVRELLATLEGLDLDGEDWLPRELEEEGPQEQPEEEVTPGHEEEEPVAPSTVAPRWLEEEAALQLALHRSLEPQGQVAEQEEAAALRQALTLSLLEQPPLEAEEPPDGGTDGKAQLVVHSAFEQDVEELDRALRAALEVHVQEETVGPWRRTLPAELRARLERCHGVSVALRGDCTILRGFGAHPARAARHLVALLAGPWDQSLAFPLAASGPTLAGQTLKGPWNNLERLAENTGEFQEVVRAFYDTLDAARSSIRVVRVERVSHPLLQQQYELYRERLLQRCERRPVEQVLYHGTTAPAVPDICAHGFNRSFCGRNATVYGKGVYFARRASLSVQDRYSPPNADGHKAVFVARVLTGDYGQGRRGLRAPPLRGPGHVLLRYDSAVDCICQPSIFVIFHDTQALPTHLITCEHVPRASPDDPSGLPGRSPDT
Chain of UniProt P28062 (whole entry, looked up): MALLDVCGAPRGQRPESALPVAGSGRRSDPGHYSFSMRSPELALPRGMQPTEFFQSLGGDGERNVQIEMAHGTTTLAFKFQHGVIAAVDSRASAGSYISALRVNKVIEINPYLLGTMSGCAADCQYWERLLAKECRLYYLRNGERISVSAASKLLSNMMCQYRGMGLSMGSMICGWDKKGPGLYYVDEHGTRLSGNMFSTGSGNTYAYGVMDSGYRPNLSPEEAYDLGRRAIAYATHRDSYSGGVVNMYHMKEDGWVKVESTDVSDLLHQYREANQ

| Structure (SMILES) | target | test | system | conditions | endpoint | result |
| --- | --- | --- | --- | --- | --- | --- |
| CCOC(=O)c1ccccc1-c1c2ccc(=O)cc-2oc2cc(OCCCNc3c(-c4cccc(C=O)c4)nc4ccccn34)ccc12 | Polyunsaturated fatty acid lipoxygenase ALOX15 (ALOX15, Homo sapiens, UniProt P16050) | enzyme activity, inhibitor, absorbance |  |  | IC50 | > 100 µM |
| CCN(C)C(=O)c1c(C)[nH]c(C)c1S(=O)(=O)Nc1ccc(C(F)(F)F)c(Cl)c1 | DRD3 | β-arrestin recruitment, antagonist |  |  | IC50 | 13.3 µM |
| O=C(NO)c1cc(F)cc(OS(=O)(=O)Oc2ccc(C(F)(F)F)cc2)c1 | HDAC6 | enzyme activity, inhibitor, fluorescence |  |  | IC50 | 0.564 µM |
| Cc1ccc(Cn2nnc3c4ccc(C(F)(F)F)cc4c(=O)[nH]c32)cc1 | PARP2 | enzyme activity, inhibitor |  |  | IC50 | > 10 µM |
| COc1cc(-c2cncc3c2CN(C)Cc2cc(N4CCNCC4)ccc2-3)cc(OC)c1OC | Hepatocyte growth factor receptor (MET, Homo sapiens, UniProt P08581, Y1230D) | enzyme activity, inhibitor |  | 1 µM | remaining activity | 90% |
| COc1ccn2c(Nc3ccccc3F)c(-c3ccncn3)nc2c1 | Voltage-gated inwardly rectifying potassium channel KCNH2 (KCNH2, Homo sapiens, UniProt Q12809) | ion current, inhibitor |  |  | IC50 | < 0.0001 µM |
| C=CC(=O)N1CCC(COCC(=O)N2CCN(c3nc(-c4cnc(N)nc4C(F)F)nc(N4CCOC[C@@H]4C)n3)CC2)CC1 | Serine/threonine-protein kinase OSR1 (OXSR1, Homo sapiens, UniProt O95747) | binding, competition with immobilised ligand |  | 1 µM | remaining binding | 88% |
| O=c1[nH]c2c(nnn2Cc2c(F)c(F)c(F)c(F)c2F)c2ccc(F)cc12 | PARP2 | enzyme activity, inhibitor |  |  | IC50 | > 10 µM |
| O=C(NO)c1cncc(OS(=O)(=O)Oc2ccc3ccccc3c2)c1 | HDAC6 | enzyme activity, inhibitor, fluorescence |  |  | IC50 | 0.03 µM |
| O=C(O)CCc1nc(-c2ccccc2)c(-c2ccccc2)o1 | CES2 | enzyme activity, inhibitor, fluorescence |  | with preincubation | IC50 | > 100 µM |
| Nc1ncnc2c1c(Oc1cc(C(F)(F)F)ccn1)nn2C1CC1 | Cytochrome P450 1A2 (CYP1A2, Homo sapiens, UniProt P05177) | enzyme activity, inhibitor | human, liver microsomes | 10 min | IC50 | < 1 µM and 0.46 µM |
| CNc1ncc2c(/C=C/C(=O)N3CCC(OC)CC3)nn(Cc3cccc(C(F)(F)F)c3)c2n1 | Receptor-interacting serine/threonine-protein kinase 4 (RIPK4, Homo sapiens, UniProt P57078) | enzyme activity, inhibitor, radiometric |  | 1 µM | remaining activity | 99% |
| CC(C)(C)c1ccc(C(O)CCCN2CCC(C(O)(c3ccccc3)c3ccccc3)CC2)cc1 (stereo not drawn) | CES2 | enzyme activity, inhibitor, fluorescence |  | with preincubation | IC50 | 12.8 µM |
| Cc1cc(OS(=O)(=O)Oc2ccc3ccccc3c2)cc(C(=O)NO)c1 | HDAC8 | enzyme activity, inhibitor, fluorescence |  |  | IC50 | 5.03 µM |
| Cc1cccc(N=C2C(=O)N(Cc3ccc(Br)cc3)c3ccccc32)c1 | PIK3CB | enzyme activity, inhibitor, ADP detection |  |  | IC50 | 0.0918 µM |
| Cc1[nH]c(C)c(S(=O)(=O)Nc2ccc(C(F)(F)F)c(Cl)c2)c1C(=O)NCC(F)(F)F | DRD3 | β-arrestin recruitment, antagonist |  |  | IC50 | 14 µM |
| FC(F)(F)c1cccc(Nc2ncnc3ccc(-c4ccoc4)cc23)c1 | Epidermal growth factor receptor (EGFR, Homo sapiens, UniProt P00533) | enzyme activity, inhibitor, radiometric |  |  | IC50 | 0.00447 µM |
| Cc1[nH]c(C)c(S(=O)(=O)Nc2ccc(C(=O)C3CC3)c(Cl)c2)c1C(=O)N1CCC(F)(F)C1 | DRD3 | β-arrestin recruitment, antagonist |  |  | IC50 | 8.1 µM |
| Cc1ccc(Cn2nnc3c4ccc(F)cc4c(=O)[nH]c32)cc1 | PARP10 | enzyme activity, inhibitor |  |  | IC50 | > 10 µM |
| COc1cc2c(Nc3ccc(Br)cc3F)ncnc2cc1OCC1CCN(C)CC1 | CES2 | enzyme activity, inhibitor, fluorescence |  | with preincubation | IC50 | > 100 µM |
| O=C(NO)c1cccc(OS(=O)(=O)Oc2cccc(-c3ccccc3)c2)c1 | HDAC8 | enzyme activity, inhibitor, fluorescence |  |  | IC50 | 0.718 µM |

| Structure (SMILES) | target | test | system | conditions | endpoint | result |
| --- | --- | --- | --- | --- | --- | --- |
| Cc1[nH]c(C)c(S(=O)(=O)Nc2ccc(C(F)(F)F)c(Cl)c2)c1C(=O)N1C[C@@H](F)[C@@H](F)C1 | DRD3 | G protein activation, antagonist, BRET |  |  | IC50 | 0.95 µM |
| Cc1cc(C(C)(C)C)ccc1OS(=O)(=O)Oc1cc(F)cc(C(=O)NO)c1 | HDAC8 | enzyme activity, inhibitor, fluorescence |  |  | IC50 | 10.3 µM |
| Cc1cccc(Cn2nnc3c4ccc(F)cc4c(=O)[nH]c32)c1 | PARP10 | enzyme activity, inhibitor |  |  | IC50 | > 10 µM |
| COc1cc2c(cc1OC)C(=O)/C(=C/c1ccc(-c3ccccc3)cc1)C2 | CES2 | enzyme activity, inhibitor, fluorescence |  | with preincubation | IC50 | 1.27 µM |
| Cc1[nH]c(C)c(S(=O)(=O)Nc2ccc(C(F)(F)F)c(Br)c2)c1C(=O)N1CCCC1 | DRD3 | G protein activation, antagonist, BRET |  |  | IC50 | 3.3 µM |
| O=C(NO)c1cncc(OS(=O)(=O)Oc2ccc(-n3ccnc3)cc2)c1 | HDAC6 | enzyme activity, inhibitor, fluorescence |  |  | IC50 | 0.064 µM |
| FC(F)(F)Oc1ccc(Oc2ccnc(N3CCC(NC(=S)Nc4cccnc4)CC3)c2Cl)c(Cl)c1 | Lysophosphatidylserine lipase ABHD12 (Homo sapiens, UniProt Q8N2K0) | enzyme activity, inhibitor |  | lysate | IC50 | 0.089 µM |
| Cc1[nH]c(C)c(S(=O)(=O)Nc2ccc(C(F)(F)F)c3ncccc23)c1C(=O)N1CCC(F)(F)C1 | DRD3 | β-arrestin recruitment, antagonist |  |  | IC50 | 12 µM |
| S=C=NCc1ccccc1 | Bifunctional epoxide hydrolase 2 (EPHX2, Homo sapiens, UniProt P34913) | enzyme activity, inhibitor, fluorescence |  |  | IC50 | 42.9 µM |
| Cc1nc(Nc2ccc3c(c2)CC(=O)N3)c2ccccc2n1 | PIK3CB | enzyme activity, inhibitor, ADP detection |  |  | IC50 | 0.0969 µM |
| Cc1[nH]c(C)c(S(=O)(=O)Nc2cc(Cl)c(Cl)cc2Cl)c1C(=O)N1CCC(F)(F)C1 | DRD3 | G protein activation, antagonist, BRET |  |  | IC50 | 16 µM |
| O=C(NO)c1cncc(OS(=O)(=O)Oc2ccc(C(F)(F)F)cc2)c1 | Histone deacetylase 1 (HDAC1, Homo sapiens, UniProt Q13547) | enzyme activity, inhibitor, fluorescence |  |  | IC50 | 2.92 µM |
| COc1ccc(C[C@H](NC(=O)[C@H](C)NC(=O)CN2CCOCC2)C(=O)N[C@@H](CC2CCC(F)(F)CC2)C(=O)[C@@]2(C)CO2)cc1 | Proteasome subunit beta type-8 (PSMB8, Homo sapiens, UniProt P28062) | enzyme activity, inhibitor |  | lysate | IC50 | 0.122 µM |
| O=C1Nc2ccccc2/C1=N\c1ccc(Cl)cc1 | PIK3CB | enzyme activity, inhibitor, ADP detection |  |  | IC50 | 0.78 µM |
| CC(C)(C)c1ccc(Cn2nnc3c4ccc(F)cc4c(=O)[nH]c32)cc1 | PARP10 | enzyme activity, inhibitor |  |  | IC50 | > 10 µM |
| COc1cc2c(cc1OC)C(=O)/C(=C/c1ccc(F)cc1F)C2 | CES2 | enzyme activity, inhibitor, fluorescence |  | with preincubation | IC50 | > 100 µM |
| Cc1[nH]c(C)c(S(=O)(=O)Nc2ccc(C(F)(F)F)c(Cl)c2)c1C(=O)N(C)CC(F)(F)F | DRD3 | β-arrestin recruitment, antagonist |  |  | IC50 | > 50 µM |
| N#C[C@@]12C[C@@H]1[C@@H](n1cnc3c(N[C@@H](C4CCC4)C4CC4)nc(I)nc31)[C@H](O)[C@@H]2O | Cytochrome P450 2D6 (CYP2D6, Homo sapiens, UniProt P10635) | enzyme activity, inhibitor |  |  | IC50 | > 20 µM and 24.2 µM |
| O=C(c1cc(Cc2n[nH]c(=O)c3ccccc23)ccc1F)N1CCN(C(=O)C2CC2)CC1 | CES2 | enzyme activity, inhibitor, fluorescence |  | with preincubation | IC50 | > 100 µM |
| O=C(NO)c1cccc(OS(=O)(=O)Oc2ccc(-c3cccc(C(F)(F)F)c3)cc2)c1 | HDAC8 | enzyme activity, inhibitor, fluorescence |  |  | IC50 | 1.58 µM |
| O=C1C(=Nc2ccccc2I)c2ccccc2N1Cc1cccc(Cl)c1 | PIK3CB | enzyme activity, inhibitor, ADP detection |  |  | IC50 | 0.266 µM |
